Published values of several laboratories.
Each numbered part is a random draw from the data of one study; scales do not carry over between parts. Substitutions count along the parent as printed.

Series 1 — technique: RNA Bind-n-Seq; form: RNA; medium: in vitro; concentration: 200 nM; notes: whole 134-nt RNA, ends assumed; added: 150 mM LiCl; reference: input library; direction: higher = stronger binding; quantity: log2 enrichment; each molecule: 7-deaza-guanosine replaces G
Target: Fragile X messenger ribonucleoprotein 1, C-terminal low-complexity region (Fmr1, Mus musculus, UniProt P35922)
Constant ends, left off below: GGGAGUUCUACAGUCCGACGAUC … UGGAAUUCUCGGGUGUCAAGG
GUCCUGUGCUACACAUCGUAUGUACCGAAUCGGGGAAAGGGGUUUGGGGUUUUUGGGGAAAGUAUUAUGUUACGCCGUUCGGAUCUGCAC: -1.1
AAGUCCUGUGCUACACAUCGUAUGUACCGAAUCGGGUUUGGGAAAAAAAGGGUGGGAAAGUAUUAUGUUACGCCGUUCGGAUCUGCACUU: -1.81
UCCUGUGCUACACAUCGUAUGUACCGAAUCGGUUUUUUUGGUUUUUUUGGUUUUUUUGGAAAGUAUUAUGUUACGCCGUUCGGAUCUGCA: -0.496
CUGUGCUACACAUCGUAUGUACCGAAUCGGGCCCCCCCGGGGCCCCCCCGGCCCCCCCGGGGAAAGUAUUAUGUUACGCCGUUCGGAUCU: -1.46
GCAGGAAGUAAAAACAAAUGGAAAUGAAACGGAUAGUGGCAGGGGUGGGGGUUGCUAAGGAAAGGGUGGGAUGGGAGUGGGUAAAGAGUU: 1.7
GUCCUGUGCUACACAUCGUAUGUACCGAAUCGGUUUUUUGGUUUUUUGGGGUUUUUUGGAAAGUAUUAUGUUACGCCGUUCGGAUCUGCA: -1.27
CUCAAGUCCUGUGCUACACAUCGUAUGUACCGAAUCGGAAGGGGAAGGGAAGGAAAGUAUUAUGUUACGCCGUUCGGAUCUGCACUUCCA: -0.264
UUUUAAUUUGUUUGUCUCUCAUGAAACUAUGGUCUUUUAAAAAUUAAAGGUUUUUUUUUUCCCCUUAGACGAAACUGCAAAGGAAAUCCG: 0.209
CACAGAAAACACGCACCCACACAGACACAGAGGGAAGGGGUUGGGAUGGGGACAGGGUGCACAGCAGGGCGGGGUAGGACCCCAGCCCCU: 0.497
AAGUCCUGUGCUACACAUCGUAUGUACCGAAUCGGGUGGGAAAAAAAGGGUUUGGGAAAGUAUUAUGUUACGCCGUUCGGAUCUGCACUU: -2.51
CCUGUGCUACACAUCGUAUGUACCGAAUCGGCCCCCCCGGCCCCCCCGGGGCCCCCCCGGGAAAGUAUUAUGUUACGCCGUUCGGAUCUG: 1.2

Series 2 — target: UBE2G1 UBC core domain (UniProt P62253); technique: yeast two-hybrid; medium: yeast; notes: mostly zero background; reference: not given; direction: higher = stronger interaction; quantity: lacZ reporter activity
B1: RNF32 RING domain (UniProt Q9H0A6); chain SLLQGDSVQPCPICKEEFELRPQVLLSCSHVFHKACLQAFEKFTNKKTCPLCRKNQYQTRVIH
B2: ANKIB1 RING domain (UniProt Q9P2G1); chain LSPGDLDTSLCDICMCSISVFEDPVDMPCGHDFCRGCWESFLNLKIQEGEAHNIFCPAYDCFQLVPVDIIE
B3: RNF175 RING domain (UniProt Q8N4F7); chain LPTRSLSDNICAVCGQKIIVELDEEGLIENTYQLSCNHVFHEFCIRGWCIVGKKQTCPYCKEKVDLKRMIS
B4: RNF43 RING domain (UniProt Q68DV7); chain SGSSCSSAPVCAICLEEFSEGQELRVISCLHEFHRNCVDPWLHQHRTCPLCMFNITEGDSFS
B5: TRIM38 RING domain (UniProt O00635); chain STKKMMEEATCSICLSLMTNPVSINCGHSYCHLCITDFFKNPSQKQLRQETFCCPQCRAPFHMDSLRP
B6: TRIM15 RING domain (UniProt Q9C019); chain SLKVVHELPACTLCAGPLEDAVTIPCGHTFCRLCLPALSQMGAQSSGKILLCPLCQEEEQAETPMA
B7: RFPL2 RING domain (UniProt O75678); chain MAALFQEASSCPVCSDYLEKPMSLECGCAVCLKCINSLQKEPHGEDLLCCCSSMVSRKNKIRR
B8: UBE4A RING domain (UniProt Q14139); chain LQQQEEETYADACDEFLDPIMSTLMCDPVVLPSSRVTVDRSTIARHLLSDQTDPFNRSPLTMDQIRPNTELKEKIQRWLAERKQQKEQLE
B9: TRIM55 RING domain (UniProt Q9BYV6); chain TMDNLEKQLICPICLEMFTKPVVILPCQHNLCRKCASDIFQASNPYLPTRGGTTMASGGRFRCPSCRHEVVLDRHG
B10: RNF112 RING domain (UniProt Q9ULX5); chain QPMAPRELPTCSICLERLRDPISLDCGHDFCIRCFSTHRLPGCEPPCCPECRKICKQKRGLR
B11: TRIM10 RING domain (UniProt Q9UDY6); chain SVTSLADEVNCPICQGTLREPVTIDCGHNFCRACLTRYCEIPGPDLEESPTCPLCKEPFRPGSFRP
B12: RNF4 RING domain (UniProt P78317); chain TGLRPSGTVSCPICMDGYSEIVQNGRLIVSTECGHVFCSQCLRDSLKNANTCPTCRKKINHKRYHP
B13: TRIM52 RING domain (UniProt Q96A61); chain PMQTLQEEAVCAICLDYFKDPVSISCGHNFCRGCVTQLWSKEDEEDQNEEEDEWEEEEDEEAV
Construct (chain): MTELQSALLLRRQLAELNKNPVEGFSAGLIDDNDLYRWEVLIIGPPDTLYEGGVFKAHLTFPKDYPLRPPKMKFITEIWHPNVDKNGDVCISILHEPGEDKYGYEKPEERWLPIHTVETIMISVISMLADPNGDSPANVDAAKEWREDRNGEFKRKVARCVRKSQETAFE
MANWVFCNRCFQPPHRTSCFSLTNCGHVYCDACLGKGKKNECLICKAPCRTVLLSK (RNF212 RING domain (UniProt Q495C1)): 0
B1 (RNF32 RING domain): 0
SYEDKSNDFVCPICFDMIEEAYMTKCGHSFCYKCIHQSLEDNNRCPKCNYVVDNIDHLY (COP1 RING domain (UniProt Q8NHY2)): 0
B2 (ANKIB1 RING domain): 0
B3 (RNF175 RING domain): 0
B4 (RNF43 RING domain): 0
B5 (TRIM38 RING domain): 0
B6 (TRIM15 RING domain): 0
B7 (RFPL2 RING domain): 0
B8 (UBE4A RING domain): 0
B9 (TRIM55 RING domain): 0
B10 (RNF112 RING domain): 0
B11 (TRIM10 RING domain): 0
LKQVSIRENCCSLCCDEVADTQLKPCGHSDLCMDCALQLETCPLCRKEIVSRIRQI (RSPRY1 RING domain (UniProt Q96DX4)): 0
B12 (RNF4 RING domain): 0
B13 (TRIM52 RING domain): 0

Series 3 — target: FOSB, bZIP domain (human); technique: DHFR protein complementation; medium: yeast; reference: wild-type JUN-FOS pair; direction: higher = stronger binding; quantity: binding fitness
Notes: single substitutions, most at no-binding floor
Starting sequence: JUN, bZIP domain (human); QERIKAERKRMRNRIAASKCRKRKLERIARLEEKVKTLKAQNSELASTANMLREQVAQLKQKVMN; partner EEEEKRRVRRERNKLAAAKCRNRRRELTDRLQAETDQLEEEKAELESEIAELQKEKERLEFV
E33T: -0.293 natural log
L31F: -0.46 natural log
E54V: -0.289 natural log
V35W: -0.411 natural log
T37N: -0.0712 natural log
E54T: -0.197 natural log
A57R: -0.162 natural log
V56L: -0.462 natural log
E33N: -0.27 natural log
R53K: -0.142 natural log
K34G: -0.135 natural log
E54D: -0.255 natural log
R30G: 0.0044 natural log
A49L: -0.07 natural log
L31C: -0.705 natural log
M51S: -0.0612 natural log

Series 4 — target: CCNE1, cyclin fold, Cln2 fusion (human); technique: yeast growth competition, sequencing; medium: yeast; notes: weak parent motif; reference: not given; direction: higher = stronger binding; quantity: normalised enrichment score
Starting sequence: USP37 docking peptide (human); PSAKRSLGFLPQP
PSAARSLGFLPQP [K4A]: 0.377
PSAKRSLGFLAQP [P11A]: 0.0245
PSAKRSLGFAPQP [L10A]: 0.0762
PAAKRSLGFLPQP [S2A]: 0.358
PSAKRALGFLPQP [S6A]: 0.684
ASAKRSLGFLPQP [P1A]: 0.0077

Series 5 — technique: protein-binding microarray; form: double-stranded DNA, one strand shown; medium: in vitro; concentration: 250 nM; notes: 60-bp whole probe; added: salmon DNA 0.4 mg/ml; reference: random background probes; direction: higher = stronger binding; quantity: log fluorescence; constant ends, left off below: GCCTAGCAC … GTCTTGATTCGCTTGACGCTGCTG
Target: Interferon regulatory factor 7, full length, phosphomimetic (IRF7, Homo sapiens, UniProt Q92985, residues 1-503, S101K/S471D/S472D/S475D/S476D/S477D/S483D/S484D/S487D)
Sequence of UniProt Q92985 (whole entry, unmodified, looked up): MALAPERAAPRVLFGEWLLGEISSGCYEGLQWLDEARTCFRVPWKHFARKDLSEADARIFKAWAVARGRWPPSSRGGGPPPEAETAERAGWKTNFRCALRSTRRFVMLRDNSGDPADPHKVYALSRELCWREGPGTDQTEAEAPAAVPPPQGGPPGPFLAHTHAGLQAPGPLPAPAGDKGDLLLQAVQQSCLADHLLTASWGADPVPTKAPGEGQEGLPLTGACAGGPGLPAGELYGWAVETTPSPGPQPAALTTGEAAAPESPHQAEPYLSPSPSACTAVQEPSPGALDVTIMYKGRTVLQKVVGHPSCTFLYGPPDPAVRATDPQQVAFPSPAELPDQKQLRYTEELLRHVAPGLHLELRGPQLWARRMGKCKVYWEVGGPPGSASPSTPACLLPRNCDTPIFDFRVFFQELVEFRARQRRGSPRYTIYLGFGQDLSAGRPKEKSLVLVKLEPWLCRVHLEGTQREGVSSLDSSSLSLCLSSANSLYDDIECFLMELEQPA
TTAGATATTAGTTTCGATTAGTGCTAG: 9.56 z-score
ATCTCACTCTGTCCCTCTGTGTGCTAG: 0.576 z-score
TTAGGTAGCCTTCTCCTTTAGTGCTAG: -0.666 z-score
TTAGGTTCCGGTTTTGGTTAGTGCTAG: 6.48 z-score
GACGATTTCAGACTGTAGACGTGCTAG: 0.244 z-score
TCACCTCTCAACCATCCTACTGTGCTA: 0.284 z-score
GACGGTATCAGTCTCGGGACGTGCTAG: -0.136 z-score
TTCGGTCTCGGTTTCGGTTAGTGCTAG: 11 z-score
GACGGTTTCGACTATCGCGACGTGCTA: 5.63 z-score
TTAGGTATCGACACTTGGTTAGTGCTA: 0.38 z-score
GACGATATCGGGTATCGACACGTGCTA: -0.122 z-score
GACGATTTCAGTCTCGACACGTGCTAG: 0.302 z-score
CCAGGGCTCTAGAGAAATAGGTGCTAG: -0.372 z-score
GACGATATCAGTTTCAAGACGTGCTAG: 0.327 z-score
TTAGATCTCAGTTGCGATTAGTGCTAG: 0.818 z-score
GACGGTTTCGGGACTGTGGACGTGCTA: 3.95 z-score
TTAGAACTGGGGTTTCTATTAGTGCTA: 0.914 z-score
CGTAAGCAAAAATGATTGGTGTGCTAG: -0.151 z-score
CCAAGTTTATACCTTAGGTTGTGCTAG: 0.169 z-score
TTCCAAATGCCCTCTCCATACGTGCTA: 0.0663 z-score
TCATCATTGCCTATTTTACTGTGCTAG: 0.381 z-score
TTAGGACTGGGGCCTGGGTTAGTGCTA: -0.284 z-score
GACGGTTTCCTTTTCCTGTCGTGCTAG: 7.68 z-score
GATGATTCCAGTTTCGAGACGTGCTAG: 4.52 z-score
GACGGACTGGACACTAGGGACGTGCTA: -0.549 z-score

A few entries again (series 5):
TTAGGTAGCCTTCTCCTTTAGTGCTAG: -0.666 z-score
TTAGGTTCCGGTTTTGGTTAGTGCTAG: 6.48 z-score
GACGATTTCAGACTGTAGACGTGCTAG: 0.244 z-score
TCACCTCTCAACCATCCTACTGTGCTA: 0.284 z-score
GACGGTATCAGTCTCGGGACGTGCTAG: -0.136 z-score
TTCGGTCTCGGTTTCGGTTAGTGCTAG: 11 z-score
GACGGTTTCGACTATCGCGACGTGCTA: 5.63 z-score
TTAGGTATCGACACTTGGTTAGTGCTA: 0.38 z-score
GACGATATCGGGTATCGACACGTGCTA: -0.122 z-score
GACGATTTCAGTCTCGACACGTGCTAG: 0.302 z-score
CCAGGGCTCTAGAGAAATAGGTGCTAG: -0.372 z-score
GACGATATCAGTTTCAAGACGTGCTAG: 0.327 z-score
